Earlier results, collected from citations in different studies.
Numbered parts are unrelated; values within a part may stem from several laboratories.

Series 1
Organism: Cryptosporidium parvum
Method: high-throughput screen
Concentration: concentration not given
SMILES | activity
COc1cc2nc(N(C)CCCNC(=O)C3CCCO3)nc(N)c2cc1OC (centres unmarked) | inactive
O=C(CCNNC(=O)c1ccncc1)NCc1ccccc1 | inactive
CC(C)NCC(O)c1cc(O)cc(O)c1 (centres unmarked) | inactive
Cc1nc2n(c(=O)c1CCN1CCC(c3noc4cc(F)ccc34)CC1)CCCC2 | inactive

Other studies, line by line
Compound | target or system | test | test system | setting | measurement | value
CCOCCn1cc(C(=O)Nc2ccc(-n3nc(-c4cccnc4)cc3C(F)(F)F)cn2)ccc1=O | EPHX2 | biochemical activity | – | – | IC50 | 7 nM
COc1cc2c(c(OC)c1OC)-c1c(cc3c(c1OC)OCO3)CC(C)C(C)C2 (centres unmarked) | CYP3A, rat | enzyme activity, inhibitor | rat liver microsomes | – | IC50 | 5500 nM
COc1cccc(CNC(=O)c2nc3scc(COCc4ccc(C(=O)O)cc4)c3c(=O)[nH]2)c1 | MMP13 (human) | cellular activity | – | – | IC50 | < 100 nM
Cn1cncc1[C@@](N)(c1ccc(Cl)cc1)c1ccc2c(c1)c(-c1cccc(Cl)c1)cc(=O)n2C | – | – | – | ionisation site 1 | pKa | 6.1
C[C@H](NC(=O)c1cnc2n1[C@](C)(Cc1ccc(C#N)cc1)C(=O)N2c1cc(Cl)c(F)c(Cl)c1)C(=O)NC1(c2ccccn2)CC1 | ITGAL | biochemical | – | – | Kd | 9 nM
COc1cc2c(c(OC)c1OC)-c1c(cc(OC)c(OC)c1OC)C[C@H](C)[C@H](C)C2 | CYP3A, rat | enzyme activity, inhibitor | rat liver microsomes | – | Ki | 5800 nM
CC1CCN(c2ccnc(NCc3cn(C)cn3)n2)CC1 | HEXB | – | – | – | IC50 | > 10000 nM

Some of these lines once more (other studies, line by line):
Compound | target or system | test | test system | setting | measurement | value
COc1cc2c(c(OC)c1OC)-c1c(cc(OC)c(OC)c1OC)C[C@H](C)[C@H](C)C2 | CYP3A, rat | enzyme activity, inhibitor | rat liver microsomes | – | Ki | 5800 nM
